Measured values collected from several papers.
Compare with care: the assays were run in different laboratories. Values joined by “and” are separate records of one study, mostly repeats; a detail may differ. Numbers after ± are the reported error.

COc1cccc(OC)c1-c1cc(C(=O)NC2(C(=O)O)C3CC4CC(C3)CC2C4)nn1-c1ccc(C(=O)N(C)CCCN(C)CCCN(C)C(=O)CN2CCN(CC(=O)[O-])CCN(CC(=O)[O-])CCN(CC(=O)[O-])CC2)cc1C(C)C.[177Lu+3] (centres unmarked)  tumour-to-pancreas ratio (mouse HT-29 xenograft; 24 h, biodistribution; reference: tumour over pancreas): 142
COc1cc([C@H]2OC[C@H]3[C@@H]2CO[C@@H]3c2ccc(O[C@@H]3O[C@H](CO)[C@@H](O)[C@H](O)[C@H]3O)c(OC)c2)ccc1O[C@@H]1O[C@H](CO)[C@@H](O)[C@H](O)[C@H]1O  accuracy (post-procedure stability; rat plasma; 8 ng/mL, 3 h, room temperature): 106%
CC(=O)N[C@@H](CCC(=O)O)C(=O)O  log2 fold change (binding, MIDAS equilibrium dialysis LC-MS; A2AR-BRIL thermostabilized; concentration not given; reference: no-protein control): 0.00726
O=C(c1nc2n(n1)[C@H](c1ccccc1)C[C@@H]2F)C1CC1  renal clearance (human; 225 mg single dose): 0.043 to 0.357 mL/min
Cc1c(-c2ccc(N3CCc4cccc(C(=O)Nc5nc6ccccc6s5)c4C3)nc2C(=O)O)cnn1CC12CC3(C)CC(C)(C1)CC(OCCNCC[C@H](O)CO)(C3)C2  plasma concentration (anaesthetized male beagle dog; iv infusion, 0.3 mg/kg/min, 60 min): 5.35 ng/mL and 3.34 ng/mL
C=C[C@@](C)(/C=C/c1ccc(O)cc1)CCC=C(C)C  accuracy (three freeze-thaw cycles; rat plasma; 8 ng/mL, -70 °C freeze): 98.1%
N#Cc1ccc2c(c1)[C@H]1CCCN(C(=O)c3ccc4[nH]cnc4c3)[C@H]1C2  SHBG level (human males; 20 mg, day 15): 39.7 nmol/L
CCc1cc(C(=O)NC)c2nccc(N3CCc4c(cc(Cn5ccnc5)cc4-c4cn(C)nc4C(F)(F)F)C3=O)c2c1  gastrocnemius weight change (Sprague Dawley rats; oral, 100 mg/kg twice daily, 7 days; reference: vehicle): -5.36%
[18F]c1ccc(-c2ccc3c(c2)[nH]c2ccncc23)cn1  SUV (ex vivo biodistribution; APP/PS1 mouse, AD model, hippocampus; intravenous, 30 min): 0.394 ± 0.027
OC[C@H]1O[C@@H](c2ccc(Cl)c(Cc3ccc(O[C@H]4CCOC4)cc3)c2)[C@H](O)[C@@H](O)[C@@H]1O  change in Total cholesterol (Japanese type 1 diabetes patients, blood; 25 mg, day 28; reference: baseline): 8.92 mg/dL
CNC(=O)c1ccc(-c2cnc3ncc(Cc4ccc5ncccc5c4)n3n2)cc1F  patients with adverse event (item: Pyrexia; other cancer patients; oral, 600 mg twice daily, expansion cohort, grade 3-4): 0%
C=CC(=O)NC1CCN(c2ncc3ncnc(Nc4ccc(Oc5ccc6c(c5)ncn6C)c(C)c4)c3n2)CC1  blood-to-plasma ratio (item: total radioactivity; healthy male human, whole blood and plasma; oral, 60 mg, 48 h, geometric mean): 1.54
Cc1nc2cccc(OCC(C)(C)C(=O)NC(C)C)c2c(N)c1C(=O)O  PCE/NCE ratio (male Swiss albino CD-1 mouse, bone marrow; oral, 2000 mg/kg, 48 h): 0.82
Cc1cc(NC2CCN(C(=O)OC3CCN(C(=O)/C=C/CN(C)C)C3)CC2)n2ncc(C(C)C)c2n1 (centres unmarked)  patients with adverse event (Phase I dose escalation CTCAE v4.0, item: abdominal distension; patients with advanced solid tumours; dose not given, QD dosing grade 3 or higher): 0%
CC(C)(C(=O)N1CCOc2c(C#N)cncc2C1)C(F)F  subjects with adverse event (item: abdominal discomfort; human; oral, 15 mg twice daily, 14 days, multiple ascending dose): 12.5%
CC(C)[N+](C)(CCOC(=O)C1c2ccccc2Oc2ccccc21)C(C)C  remaining compound (mouse, CD-1, both sexes, whole blood; 5 µM, 120 min): 23.6%
C[C@@H](Oc1ccc(S(C)(=O)=O)cc1C(=O)N1C[C@@H]2C[C@]2(c2cc(C(F)(F)F)on2)C1)C(F)(F)F  renal clearance at steady state (young healthy humans, plasma and urine; oral, 10 mg, 0 to 24 h, multiple dosing once daily): 5.94 mL/min
Cc1ccc([C@@H]2O[C@H](CO)[C@@H](O)[C@H](O)[C@H]2O)cc1Cc1ccc(-c2ccc(F)cc2)s1  urinary phosphate excretion change (item: inorganic phosphorus; Japanese type 2 diabetes patients; 100 mg, day 1, 24 h urine collection; reference: baseline): -240 mg
C[Si]1(C)O[Si](C)(C)O[Si](C)(C)O[Si](C)(C)O[Si](C)(C)O1  log KAW (0.001 to 0.003 µg/L, 34.8 °C): 3.85
CO[C@H]1C[C@@H]2CC[C@@H](C)[C@@](O)(O2)C(=O)C(=O)N2CCCC[C@H]2C(=O)O[C@H]([C@H](C)C[C@@H]2CC[C@@H](OC(=O)NCCOCCOCCOCCOCCOCCOCCOCCOCCC(=O)N3CCc4cc(Cn5nc(-c6ccc7oc(N)nc7c6)c6c(N)ncnc65)ccc4C3)[C@H](OC)C2)C[C@@H](O)[C@H](C)/C=C(\C)[C@@H](O)[C@@H](OC)C(=O)[C@H](C)C[C@H](C)/C=C/C=C/C=C/1C  Cmax (human patients, plasma; intravenous, 10 mg, cycle 1 day 15, weekly dosing, 1 h infusion, arithmetic mean): 505 ng/mL
CCN1/C(=C/C(C)=O)Sc2ccc(F)cc21  QTc interval (Bazett) (cynomolgus monkey; oral, 30 mg/kg, 0.5 h post-dose): 331 ± 13 ms
C[Si](C)(C)O[Si](C)(C)O[Si](C)(C)C  whole-body biotransformation rate constant (IVIVE from S9; rainbow trout (Oncorhynchus mykiss)): 0.077 day⁻¹ and 0.064 day⁻¹ and 0.086 day⁻¹
C/C(O)=C(\C#N)C(=O)Nc1ccc(C(F)(F)F)cc1  free plasma concentration (CD-1 mice female, plasma; oral, 30 mg/kg leflunomide daily, 8 h): 314 ± 111 µM
O=C(O)CSc1nnc(Br)n1-c1ccc(C2CC2)c2ccccc12  body weight (KM mouse, chronic hyperuricaemia model; dose not given, day 17): 29 g and 34 g and 38 g and 31.2 g and 35 g and 34.4 g
c1ccc2cc3ccccc3cc2c1  literature range factor (polyethylene-water partitioning; PAH compilation; reference: maximum over minimum K): 4
CCCCCC(=O)NCC(=O)O  log2 fold change (binding, MIDAS equilibrium dialysis LC-MS; A2AR-BRIL thermostabilized; concentration not given; reference: no-protein control): -0.966
Cn1cc(-c2cn3nccc3c(-c3cnn([C@]4(CC#N)C[C@@H](C#N)C4)c3)n2)cn1  amount excreted unchanged in urine (human, urine; oral, 30 mg once daily, day 10, dosing interval geometric mean): 0.2 mg
OC[C@H]1O[C@@H](c2ccc(Cl)c(Cc3ccc(O[C@H]4CCOC4)cc3)c2)[C@H](O)[C@@H](O)[C@@H]1O  Vss/F (healthy humans, plasma; oral, 25 mg, alone): 91.5 ± 18.8 L
Cc1cc(-c2nccc3c2ccn3CC(=O)Nc2ccc(-c3cnccn3)cn2)ccn1  subjects with Costochondritis adverse event (human; 15 mg once daily, multiple ascending dose): 11.1%
CCCCCN1C[C@H](O)[C@@H](O)[C@H](O)[C@@H]1CO  plasma concentration (LC-MS/MS; mouse Hexb-/- total, plasma; 30 mg/kg/day, arithmetic mean): 284 ng/mL
C[C@H]1Oc2cc(cnc2N)-c2c(nn(C)c2C#N)CN(C)C(=O)c2ccc(F)cc21  free plasma concentration (Balb/c nude mouse, female, plasma; 5 mg/kg, single dose, 1 h): 0.85 µM
Cc1ccc(C(=O)N(CCCN)C(c2nc3snc(C)c3c(=O)n2Cc2ccccc2)C(C)C)cc1 (centres unmarked)  grade ≥3 hypokalemia patients (human patients; intravenous, 10 mg/day): 33%
COCc1cc(C(=O)Nc2cc([C@H]3CC[C@@H](OC(=O)NC(C)C)C3)[nH]n2)n(C)n1  AUC(0-24h) (OVCAR-3 xenograft, NOD/SCID gamma mice, plasma; oral, 50 twice daily, PK/PD study): 7.05 µM·h
Cc1cc(Nc2cc3ncccc3c(N[C@@H]3C[C@H]4CC[C@@H](C3)N4CCC#N)n2)n[nH]1  subjects with contact dermatitis (healthy human; oral, 30 mg single dose, 2 weeks): 0%
C/C(=N\c1ccc(O)cc1)c1cc2ccccc2n1C  remaining compound (processed rat plasma sample; 50 ng/mL, 24 h, room temperature, autosampler tray; reference: nominal): 96.3 ± 1.6%
CNCCOC12CC3(C)CC(C)(CC(Cn4ncc(-c5ccc(N6CCc7cccc(C(=O)Nc8nc9ccccc9s8)c7C6)nc5C(=O)O)c4C)(C3)C1)C2  systemic vascular resistance change (anaesthetised male beagle dogs; intravenous bolus, 0.03 mg/kg, 90 min; reference: baseline): 38%
Cl.[2H]C([2H])([2H])CC(=O)c1cnc(NC(=O)C2CC2)cc1Nc1cccc(-c2ncn(C([2H])([2H])[2H])n2)c1OC  AUC(0-tau) (geometric mean; human; oral, 10 mg once daily, day 7, fasted, liquid, multiple dose): 914 ng·h/mL
COc1ccc(-c2c(-c3ccc(C#N)c(F)c3)nc(N3CCC(N)CC3)n(C)c2=O)cc1F  discontinuation due to AE (human patients; oral, dose not given, dose escalation): 6%
CO[C@]1(C(=O)N[C@@H](C)c2ccc(-n3cc(F)cn3)nc2)CC[C@H](c2nc(C)cc(Nc3cc(C)[nH]n3)n2)CC1  radioactivity excreted in feces (human, feces; oral, dose not given, 48 h; reference: dose): 29.1%
C[C@@H](Oc1ccc(S(C)(=O)=O)cc1C(=O)N1C[C@@H]2C[C@]2(c2cc(C(F)(F)F)on2)C1)C(F)(F)F  subjects with somnolence (human; oral plus intravenous microtracer, dose not given): 16.7%
NC1(C(=O)N[C@@H](CCO)c2ccc(Cl)cc2)CCN(c2nc[nH]c3nccc2-3)CC1  incidence of Dysgeusia (metastatic CRPC patients; 480 mg b.i.d., any grade, treatment-related, added: enzalutamide 160 mg daily): 20%
